Assay results of several laboratories.
Each line is one published result; not all experiments were run side by side. Values joined by “and” are separate records of one study, mostly repeats; a detail may differ. ± gives the spread as reported.

With C[C@H]1O[C@@H](O[C@H]2CC[C@@]3(C)[C@@H](CC[C@]4(C)[C@@H]3C=C[C@]35OC[C@@]6(CCC(C)(C)C[C@H]63)[C@@H](O)C[C@]54C)[C@]2(C)CO)[C@H](O)[C@@H](O[C@@H]2O[C@H](CO)[C@@H](O)[C@H](O)[C@H]2O)[C@H]1O the γ-GT activity was 20.3 U/L and 17.7 U/L and 28.6 U/L and 20.7 U/L and 31.1 U/L and 27.6 U/L and 14.9 U/L and 20.9 U/L (pair-fed control mice, no ethanol, plasma; oral, 15 mg/kg/day).
NC(=O)c1cnc2[nH]ccc2c1N[C@@H]1[C@@H]2CC3C[C@H]1C[C@@](O)(C3)C2 — result for “CD8+ effector T-cell change”: 0.27% (flow cytometry; Japanese healthy men, blood; oral, 100 mg twice daily, 72 h after day 7 dose; baseline: baseline).
For CC(=O)NCC(=O)NCC(=O)N[C@H](C(=O)N[C@@H](Cc1ccc(O)cc1)C(=O)N[C@@H](CO)C(=O)N[C@H]1CSSC[C@@H](C(=O)N[C@@H](CCCNC(=N)N)C(=O)N2CCC[C@H]2C(=O)N[C@@H](CCC(N)=O)C(=O)N[C@@H](CCCNC(=N)N)C(=O)NCC(=O)NCCC(=O)N[C@@H](CCCCNC(=O)CN(CC(=O)NCCCC[C@H](NC(=O)CCNC(=O)CNC(=O)[C@H](CCCNC(=N)N)NC(=O)[C@H](CCC(N)=O)NC(=O)[C@@H]2CCCN2C(=O)[C@H](CCCNC(=N)N)NC(=O)[C@@H]2CSSC[C@H](NC(=O)[C@H](CO)NC(=O)[C@H](Cc3ccc(O)cc3)NC(=O)[C@@H](NC(=O)CNC(=O)CNC(C)=O)[C@@H](C)O)C(=O)N[C@@H](Cc3c[nH]cn3)C(=O)N[C@@H](Cc3ccccc3)C(=O)NCC(=O)N[C@@H](C)C(=O)N[C@@H](CC(C)C)C(=O)N[C@@H]([C@@H](C)O)C(=O)N[C@@H](Cc3c[nH]c4ccccc34)C(=O)N[C@@H](C(C)C)C(=O)N2)C(N)=O)C(=O)CCN)C(N)=O)NC(=O)[C@H](C(C)C)NC(=O)[C@H](Cc2c[nH]c3ccccc23)NC(=O)[C@H]([C@@H](C)O)NC(=O)[C@H](CC(C)C)NC(=O)[C@H](C)NC(=O)CNC(=O)[C@H](Cc2ccccc2)NC(=O)[C@H](Cc2c[nH]cn2)NC1=O)[C@@H](C)O, the haemoglobin was 151 g/L (healthy BALB/c mice; subcutaneous, 0.08 mg/kg, 8 d, single dose).
C=CCn1c(=O)c2cnc(Nc3ccc(N4CCN(C)CC4)cc3)nc2n1-c1ccc2c(n1)[C@@](O)(CC)CC2: “tumour volume difference” 35 ± 7.6 mm3 (SK-UT-1 xenograft, BALB/c nude mice; oral, 80 mg/kg, day 24, 6 d on, 1 d off x 4 cycles).
With NCC(=O)Nc1cncc(-c2nn3c(=O)cc(N4CCNCC4)nc3s2)c1 the inhibition was 3.95% (ADP-induced platelet aggregation, light transmission aggregometry; human, stable CAD on aspirin, ex vivo platelets; subcutaneous, 0.05 mg/kg, 360 min post-dose, median value, added: ADP 20 µM).
For O[C@H]1CCCN[C@@H]1CCCn1cnc2c(Cl)c(Cl)ccc21, the maximum reduction was 27.2% (ELISA, refers to: Pro-C3; healthy human volunteers, serum; 200 mg, day 1, multiple ascending dose).
For O=P(O)(O)C(Cl)(Cl)P(=O)(O)O, the Iba1-positive area was 0.39% and 0.52% and 0.43% (Mus musculus, sham-operated, meninges; concentration not given, day 1; baseline: total area).
For CCN1/C(=C/C(C)=O)Sc2ccc(F)cc21, “paw withdrawal threshold” read “no effect” (von Frey test; α2B adrenoceptor knockout mice, burn injury pain, burn-injured hind paw; 10 mg/kg).
For O=C(O)/C=C/c1nccc2c3ccccc3n(Cc3ccc(Br)c4ccccc34)c12, “serum uric acid” read 278 µM and 332 µM and 197 µM (mouse, acute hyperuricaemia model, serum; oral, 2 mg/kg, individual animal data).
N=C(N)NCCC[C@H](NC(=O)[C@H](CCCNC(=N)N)NC(=O)[C@H](CCCCN)NC(=O)[C@H](CCC(N)=O)NC(=O)[C@H](CCCCN)NC(=O)[C@H](Cc1ccc(O)cc1)NC(=O)[C@@H](N)CCCCN)C(=O)N[C@@H](CO)C(=O)N[C@@H](Cc1ccc(O)cc1)C(=O)N[C@@H](CCCCN)C(=O)O gave a VAS change of -25.7 ± 29 (dentin hypersensitivity patients aged 30-40 years; 10 µg/tooth, day 36, unit not given; baseline: baseline).
CC(C)n1c(C2CCNCC2)nc2c([N+](=O)[O-])c(Br)c(Br)cc21 — result for “minimum blast reduction”: -4% (IDH-mutated AML patients, bone marrow; all dose levels).
FC(F)(F)Oc1cccc(-c2cnc3ccc(-c4ccncc4)nn23)c1 has a tumour growth of 150% and 805% and 408% and 447% and 346% and 606% (bioluminescence; mouse, MDA-MB-231-Luc xenograft; 10 mg/kg, day 21).
Under “log2 fold change”, c1ccc(-c2n[nH]cc2-c2ccnc3ccccc23)nc1 is recorded as 1.12 (kinase binding, competitor, MIB/MS competition, refers to: HRR25; Candida albicans cell lysate; 100 nM; baseline: DMSO).
CC(C)c1c(C(=O)Nc2ccccc2)c(-c2ccccc2)c(-c2ccc(F)cc2)n1CC[C@@H](O)C[C@@H](O)CC(=O)O: “plasma PCSK9 change” 316% (ELISA; cynomolgus monkey, female, plasma; 40 mg/kg or 25 mg/kg, day 86; baseline: pretreatment).
CN(C(=O)n1cnc(-c2ccc[n+]([O-])c2)c1)C1CCCCC1: “licking time score” 4.2 (mice, formalin paw test; 1 mg/kg, late phase, added: anandamide 5 mg/kg i.p.; direction not given).
For [Cl-].[Cl-].[Pt+2].[Ru+2].c1ccc(-c2nc3ccccc3nc2-c2ccccn2)nc1.c1cnc2c(c1)ccc1cccnc12.c1cnc2c(c1)ccc1cccnc12, the activation enthalpy was 12.7 ± 1.2 kcal/mol (concentration not given, second substitution step, added: guanosine 5'-monophosphate).
Under serum TNF-alpha, COc1cccc2c1c(O)c(C(=O)N(C)c1ccc(C(F)(F)F)cc1)c(=O)n2C is recorded as “decreased” (mouse, CP model, serum; 0.154 µmol/kg, 4 weeks).
COc1cc2cc(-c3ccc(CC(=O)Nc4cc(C(C)(C)C(F)(F)F)no4)cn3)cnc2cc1OC — result for “objective response rate”: 23% (RECIST v1.1; RET-altered advanced solid tumour patients; oral, 75 mg once daily, phase I).
Under “EEG theta power, O1 Pz”, OC(CCN1CCCCC1)(c1ccccc1)C1CC2C=CC1C2 (centres unmarked) is recorded as 4.8 µV² (resting-state EEG; healthy elderly humans; oral, 4 mg, eyes open, LS mean).
For N#Cc1ccc2c(c1)[C@H]1CCCN(C(=O)c3ccc4[nH]cnc4c3)[C@H]1C2, the plasma 1,5-anhydroglucitol was 16.5 µg/mL (T2DM patients with overweight or obesity, plasma; oral, 10 mg, day 15 (360 h), multiple dosing, mean).
Cc1n[nH]c2ccc(-c3cc(OC[C@@H](N)Cc4ccccc4)cnc3-c3ccoc3)cc12: “log2 fold change” -0.109 (kinase binding, competitor, MIB/MS competition, refers to: RCK2; Candida albicans cell lysate; 1 µM; baseline: DMSO).
For CCCOc1ccc(-c2ccc(C#N)cc2)cc1, protein level read “decreased” (proteomics, refers to: Slc16a10; rat placenta; concentration not given, uterine perfusion, all three doses).
CN(C)C(=N)N=C(N)N gave an IC15 of > 100 µM (barrier function (TEER); human ileal GI microtissue EpiIntestinal-FT).
For CC(C)(O)c1coc(S(=O)(=O)NC(=O)c2cc3ccccc3n2Cc2ccc(Br)c3ccccc23)c1, “serum uric acid decrease” read 75.4% (mouse, acute hyperuricaemia model, serum; oral, 2 mg/kg; baseline: vehicle model).
For CN[C@@H](C)C(=O)N[C@H]1CN(S(=O)(=O)c2cccc(S(=O)(=O)N3CC[C@H]4CC[C@@H](C(=O)NC(c5ccccc5)c5ccccc5)N4C(=O)[C@@H](NC(=O)[C@H](C)NC)C3)c2)CC[C@H]2CC[C@@H](C(=O)NC(c3ccccc3)c3ccccc3)N2C1=O, “duration of response” read 7.36 months (RECIST 1.1; advanced pancreatic cancer patients; dose not given, added: nab-paclitaxel plus gemcitabine).
C[C@H](Oc1ccc(Br)cc1-c1ccon1)C(=O)O gave a latency of 0.231 ms (muscle velocity recovery cycles; human, tibialis anterior muscle; 600 mg once daily, multiple doses, multiple ascending dose; baseline: placebo).
For COc1cc(F)c([C@@H]2CNC(=O)[C@H]2NC(=O)Nc2ccccc2)c(F)c1, the ejection fraction was 44 ± 13% (rat, myocardial infarction; 1 mg/kg, 1008 h, 6 weeks after occlusion).
For C[C@@H](O)CCOC(=O)C[C@@H](C)O, the metabolite level was -1.65 ± 0.65 µmol/L (refers to: C3 acylcarnitine; human, plasma; 60 min, log2-transformed values).
C[C@H]1C[C@H]2CSC(N)=N[C@@]2(c2nc(NC(=O)c3ccc(OC(F)F)cn3)cs2)CO1: “plasma Aβx-40 change” -62.4% (healthy adults, fed, plasma; oral, 200 mg single dose, 48 h; baseline: baseline, placebo-adjusted).
The aPTT AUEC of C[C@@H](NC(=O)N1C(=O)[C@H](Cc2ccnc(N)c2)[C@H]1C(=O)O)C1CCCCC1 is reported as 7240 h·s (human; iv infusion, 1.0 mg/kg/h, 24 h).
With O=C(O)CNC(=O)Cc1ccccc1 the sarcomere length was 1.72 µm (ventricular cardiomyocytes, C57BL/6 mouse; dose not given, 0.776 s).
[Cl-].[Cl-].[Pt+2].[Ru+2].c1ccc(-c2nc3cc4ccccc4cc3nc2-c2ccccn2)nc1.c1cnc2c(c1)ccc1cccnc12.c1cnc2c(c1)ccc1cccnc12 gave an activation enthalpy of 5.26 ± 0.239 kcal/mol (concentration not given, first substitution step, added: thiourea).
Cc1nc(-c2ccc(OCC(C)C)c(C#N)c2)sc1C(=O)O: “serum uric acid” 179 ± 2.5 µM (mouse, acute hyperuricaemia model; 1 mg/kg).
With CC(C)NCC(O)c1ccc(O)c(O)c1 (centres unmarked) the sarcomere length was 1.72 µm (ventricular cardiomyocytes, C57BL/6 mouse; dose not given, 0.348 s).
The inhibition of CSCCNc1nc(SCCC(F)(F)F)nc2c1ncn2[C@@H]1O[C@H](COP(=O)(O)OP(=O)(O)C(Cl)(Cl)P(=O)(O)O)[C@@H](O)[C@H]1O is reported as 34.1 ± 22.5% (ADP-induced platelet aggregation, LTA; human patients, platelet-rich plasma; dose not given, 30 min, added: ADP 20 µM).
Nc1nc(C(F)(F)F)nc2c1nnn2C[C@H]1CN(Cc2nccs2)CCO1: “Rankl mRNA level” “increased” (RT-qPCR; Ocy454, mouse; 1 µM; baseline: 100 nM).
With CCN1CCN(Cc2ccc(Nc3ncc(F)c(-c4cc(F)c5nc6n(c5c4)[C@H](C)CCC6)n3)nc2)CC1 the complete response was 0% (human advanced solid tumours; 100 mg, phase Ia monotherapy RECIST 1.1).
N#Cc1ccc2c(-c3ccncc3)c(-c3ccc(F)cc3)nn2c1: “log2 fold change” 0.559 (kinase binding, competitor, MIB/MS competition, refers to: MKK2; Candida albicans cell lysate; 10 µM; baseline: DMSO).
For c1ccc(-c2cc(-c3ccccc3)n(Cn3ccnc3)n2)cc1, the wound size was 8.1 mm (rat, STZ-nicotinamide diabetic; 150 mg/kg, 360 h, full-thickness excision wound).
Under “disease control rate (CR+PR+SD)”, Cc1cc(C)c(CNC(=O)c2cc(Cl)c3c(c2C)O[C@@](C)([C@H]2CC[C@H](N(C)C)CC2)O3)c(=O)[nH]1 is recorded as 89% (relapsed/refractory B-NHL patients; dose not given, IWG 2007 criteria).
CN[C@@H]1COc2c(S(=O)(=O)NC(=O)Nc3c4c(cc5c3CCC5)CCC4)cnn2C1 gave an inhibition of 91.5% (refers to: IL-18; human participants, whole blood ex vivo; 300 mg twice daily, multiple doses, 24 h, IL-18, circulating, adjusted for, added: LPS/ATP; baseline: baseline).
With O=C(O[C@@H]1[C@@H](O)[C@H](Oc2cc(O)c3c(c2)O[C@H](c2ccccc2)CC3=O)O[C@@H]2COC(=O)c3cc(O)c(O)c(O)c3-c3c(cc(O)c(O)c3O)C(=O)O[C@@H]12)c1cc(O)c(O)c(O)c1 the fibrin fluorescence was 33.4 ± 7.53% (mouse, laser-injury thrombosis, cremaster arterioles; intraperitoneal, 25 µg/g; baseline: control).
With CO[C@@H](C(=O)N1Cc2n[nH]c(NC(=O)c3ccc(N4CCN(C)CC4)cc3)c2C1)c1ccccc1 the tumour regression was 27% (RECIST; human; concentration not given).
Under “serum uric acid”, O=C(O)CSc1nnc(Br)n1-c1ccc(C2CC2)c2ccccc12 is recorded as 1050 ± 129 µM (mouse, acute hyperuricaemia model; 1 mg/kg).
Under “HbA1c change from baseline”, N#Cc1ccc2c(c1)[C@H]1CCCN(C(=O)c3ccc4[nH]cnc4c3)[C@H]1C2 is recorded as -0.05% (human, Phase II trial; oral, 20 mg once daily, day 28, adjusted mean, SE).
O=C(NS(=O)(=O)c1ccc(F)cc1F)c1cc2ccccc2n1Cc1ccc(Br)c2ccccc12 — result for “serum uric acid”: 934 µM and 636 µM and 1190 µM (mouse, acute hyperuricemia model; dose not given).
COc1ccc([C@@H](O)c2cc(-c3ncnc4cc(N5CCOCC5)ccc34)c(F)cc2Cl)nn1: “objective response rate” 0% (RECIST version 1.1; patients, advanced solid tumours; 400 mg twice daily, added: avelumab; baseline: patients).

Repeated from above:
Cc1nc(-c2ccc(OCC(C)C)c(C#N)c2)sc1C(=O)O: “serum uric acid” 179 ± 2.5 µM (mouse, acute hyperuricaemia model; 1 mg/kg).
COc1ccc([C@@H](O)c2cc(-c3ncnc4cc(N5CCOCC5)ccc34)c(F)cc2Cl)nn1: “objective response rate” 0% (RECIST version 1.1; patients, advanced solid tumours; 400 mg twice daily, added: avelumab; baseline: patients).
Under “HbA1c change from baseline”, N#Cc1ccc2c(c1)[C@H]1CCCN(C(=O)c3ccc4[nH]cnc4c3)[C@H]1C2 is recorded as -0.05% (human, Phase II trial; oral, 20 mg once daily, day 28, adjusted mean, SE).
For C[C@@H](O)CCOC(=O)C[C@@H](C)O, the metabolite level was -1.65 ± 0.65 µmol/L (refers to: C3 acylcarnitine; human, plasma; 60 min, log2-transformed values).
For CCN1/C(=C/C(C)=O)Sc2ccc(F)cc21, “paw withdrawal threshold” read “no effect” (von Frey test; α2B adrenoceptor knockout mice, burn injury pain, burn-injured hind paw; 10 mg/kg).
